# Measured values collected from several papers.
# Compare with care: the assays were run in different laboratories. ± marks the error that the study gave.
SMILES,system,setting,quantity,result
COc1cc2ncnc(Oc3cccc(N[11C](=O)Nc4cc(C(C)(C)C(F)(F)F)on4)c3)c2cc1OC,"Balb/c nude mouse, female, A375 melanoma xenograft, pancreas","6.6 MBq, 30 min",tissue uptake,5.24 ± 0.19 %ID/g
CN[C@](C)(C[18F])C(=O)O,"SCID mouse MDA-MB-468 xenograft, spleen","120 min, post injection",tissue uptake,4.7 ± 1.4 %ID/g
COC(=O)C[C@](O)(CCCC(C)(C)OC(C)=O)C(=O)O[C@@H]1C(OC)=C[C@]23CCCN2CCc2cc4c(cc2[C@H]13)OCO4,"CD1 mouse, liver","oral, 1 mg/kg, 24 h, below quantification limit 1.00 ng/mL",tissue concentration,not detected
N=C(N)NCc1ccc(C(=O)NCCCC[C@H](NC(=O)N[C@@H](CCC(=O)O)C(=O)O)C(=O)O)cc1[211At],"SCID mouse, PC-3 xenografts, thyroid",4 h,tissue uptake,0.75 ± 0.17 %ID/g
C=Cc1cc(O)cc2nc(-c3ccc(O)c([76Br])c3)oc12,"female C57BL/6 mouse, spleen","3 h, high dose",tissue uptake,0.05 ± 0.01 %ID/g
O=C(O)CC[C@H](NC(=O)O[C@@H](CCCCNC(=O)c1ccc([18F])cc1)C(=O)O)C(=O)O,"mouse, PC-3 PIP/flu xenografts, muscle",30 min,tissue uptake,0.86 ± 0.81 %ID/g
CCCCCCCC(=O)NCCCC[C@H](NC(=O)[C@H](Cc1ccccc1)NC(=O)[C@@H](CCCNC(=N)N)NC(=O)[C@@H](N)Cc1ccc(O)cc1)C(N)=O,"CD-1 mouse, male, heart","intravenous, 3 mg/kg, 180 min",tissue concentration,675 ± 72 ng/g
CCc1nn(C)c2nc(-c3ccc(C(=O)O)cc3)nc(NCc3ccccc3)c12,"CD-1 mouse, male, intestinal tissue","oral, 10 mg/kg",tissue persistence time,≥ 7 h
N=C(N)NCc1ccc(C(=O)NCCCC[C@H](NC(=O)N[C@@H](CCC(=O)O)C(=O)O)C(=O)O)cc1[131I],"SCID mouse, PC-3 xenografts, bone",14 h,tissue uptake,0.03 ± 0.01 %ID/g
Cn1cc(-c2cccc(CN3CCC4(CC3)COc3c4ccc4c3CN([C@H]3CCC(=O)NC3=O)C4=O)c2)cn1,"mouse Crbn I391V, thymus","oral, 10 mg/kg, 6 h",tissue concentration,76 ng/g
C[S]1CC[S]2CC[P](CO)(CO)[99Tc+]12.[C-]#[O+].[C-]#[O+].[C-]#[O+],"female CF-1 mouse, carcass","intravenous, 1 h",tissue uptake,4.5 %ID
N=C(N)NCc1ccc(C(=O)NCCCC[C@H](NC(=O)CCCCCCC(=O)NCCCC[C@H](NC(=O)N[C@@H](CCC(=O)O)C(=O)O)C(=O)O)C(=O)O)cc1[131I],"SCID mouse, PC-3 xenografts, spleen",2 h,tissue uptake,3.41 ± 2.01 %ID/g

# A few entries again:
SMILES,system,setting,quantity,result
N=C(N)NCc1ccc(C(=O)NCCCC[C@H](NC(=O)CCCCCCC(=O)NCCCC[C@H](NC(=O)N[C@@H](CCC(=O)O)C(=O)O)C(=O)O)C(=O)O)cc1[131I],"SCID mouse, PC-3 xenografts, spleen",2 h,tissue uptake,3.41 ± 2.01 %ID/g
N=C(N)NCc1ccc(C(=O)NCCCC[C@H](NC(=O)N[C@@H](CCC(=O)O)C(=O)O)C(=O)O)cc1[211At],"SCID mouse, PC-3 xenografts, thyroid",4 h,tissue uptake,0.75 ± 0.17 %ID/g
